Measurements from different studies.
Each line is one published result; not all experiments were run side by side.
Organism: Escherichia coli

COc1c(N2CC3CCCNC3C2)c(F)cc2c(=O)c(C(=O)OCc3cnc([N+](=O)[O-])s3)cn(C3CC3)c12 (stereo not drawn) — MIC (NR 51487, fluoroquinolone-resistant): > 97 µM
CC[C@H](C)[C@H](N)C(=O)N[C@@H](CC(C)C)C(=O)NCC(=O)N[C@@H](CCC(=O)O)C(=O)N[C@H](C(=O)N[C@@H](Cc1c[nH]c2ccccc12)C(=O)N[C@@H](CCCCN)C(=O)NCC(=O)N[C@H](C(=O)N[C@@H](CCCCN)C(=O)N[C@@H](CC(=O)O)C(=O)N[C@H](C(=O)N[C@@H](CC(C)C)C(N)=O)[C@@H](C)CC)[C@@H](C)CC)[C@@H](C)CC — MIC (broth microdilution; ATCC 25922; together with: NH4Cl 6 µM): 100 µM
CC1(C)S[C@@H]2[C@H](NC(=O)[C@H](N)c3ccccc3)C(=O)N2[C@H]1C(=O)O — MIC (BL21(DE3) wild type): < 1.75 µg/mL
CC[C@H](C)CCCCC(=O)N[C@@H](CCN)C(=O)N[C@H](C(=O)N[C@@H](CCN)C(=O)N[C@H]1CCNC(=O)[C@H]([C@@H](C)O)NC(=O)[C@H](CCN)NC(=O)[C@H](CCN)NC(=O)[C@H](CC(C)C)NC(=O)[C@@H](Cc2ccccc2)NC(=O)[C@H](CCN)NC1=O)[C@@H](C)O — MIC (broth microdilution; ATCC 25922, Mueller-Hinton broth): 2 µg/mL
O=C(O)CN(CC(=O)O)CC(=O)O — MIC (NDM-1 producer; 32 µg/mL, MIC of meropenem, together with: meropenem): 0.5 µg/mL
C[C@@H](O)[C@H]1C(=O)N2C(C(=O)O)=C(SCCN=CN)C[C@H]12 — MIC (DH5a clone with KPC-136): 2 µg/mL
CC[C@H](C)[C@H](NC(=O)[C@H](C)NC(=O)[C@H](CCCCN)NC(=O)[C@H](CCCNC(=N)N)NC(=O)[C@H](CCCCN)NC(=O)[C@H](CCCNC(=N)N)NC(=O)[C@H](CCCCN)NC(=O)[C@@H](N)CCCNC(=N)N)C(=O)N[C@@H](CO)C(=O)NCC(=O)N[C@@H](CO)C(=O)N[C@@H](CC(C)C)C(=O)N[C@H](C(=O)N[C@H](C(=O)N[C@@H](CC(C)C)C(=O)N[C@@H](Cc1ccccc1)C(=O)NCC(=O)N[C@@H](Cc1ccc(O)cc1)C(N)=O)[C@@H](C)O)C(C)C — MIC (checkerboard; 24 h, 37 °C, alone, rifampicin plate): 16 µM
CC[C@H](C)[C@H](NC(=O)CN)C(=O)NCC(=O)N[C@@H](C)C(=O)N[C@H](C(=O)N[C@@H](CC(C)C)C(=O)N[C@@H](CCCCN)C(=O)N[C@H](C(=O)N[C@@H](CC(C)C)C(=O)N[C@H](C(=O)N[C@H](C(=O)NCC(=O)N[C@@H](CC(C)C)C(=O)N1CCC[C@H]1C(=O)N[C@@H](C)C(=O)N[C@@H](CC(C)C)C(=O)N[C@H](C(=O)N[C@@H](CO)C(=O)N[C@@H](Cc1c[nH]c2ccccc12)C(=O)N[C@H](C(=O)N[C@@H](CCCCN)C(=O)N[C@@H](CCCNC(=N)N)C(=O)N[C@@H](CCCCN)C(=O)N[C@@H](CCCNC(=N)N)C(=O)N[C@@H](CCC(N)=O)C(=O)N[C@@H](CCC(N)=O)C(N)=O)[C@@H](C)CC)[C@@H](C)CC)[C@@H](C)O)[C@@H](C)O)C(C)C)C(C)C — MIC (NCCP 16046 carbapenem-resistant): 8 µM
CC1(C)SC2C(NC(=O)C(NC(=O)C3=C(O)C4CCCN4C3=O)c3ccccc3)C(=O)N2C1C(=O)O (stereo not drawn) — MIC (broth microdilution; isolate IU 356 A, KPC-3, VIM-1, TEM; no clavulanic acid): > 200 µg/mL
NCCCC1CN(c2ccc3c(n2)NC(=O)CO3)C(=O)O1 (stereo not drawn) — MIC (ATCC 25922): 80 µg/mL
CC[C@H](C)[C@H](NC(=O)CNC(=O)[C@H](CC(=O)O)NC(=O)[C@H](CCCNC(=N)N)NC(=O)[C@@H](NC(=O)[C@H](CC(N)=O)NC(=O)[C@H](CCCNC(=N)N)NC(=O)CNC(=O)[C@@H](NC(=O)[C@H](CCCCN)NC(=O)[C@H](CCC(=O)O)NC(=O)[C@@H](NC(=O)[C@H](CCCCN)NC(=O)[C@H](CCC(=O)O)NC(=O)[C@H](Cc1ccccc1)NC(=O)[C@@H](NC(=O)[C@H](CCCCN)NC(=O)[C@H](Cc1c[nH]c2ccccc12)NC(=O)[C@@H](N)CCCNC(=N)N)[C@@H](C)CC)[C@@H](C)CC)C(C)C)C(C)C)C(=O)N[C@H](C(=O)N[C@@H](CCCCN)C(=O)N[C@@H](C)C(=O)NCC(=O)N1CCC[C@H]1C(=O)N[C@@H](C)C(=O)N[C@H](C(=O)N[C@@H](C)C(=O)N[C@H](C(=O)N[C@H](C(=O)NCC(=O)N[C@@H](CCC(N)=O)C(=O)N[C@@H](C)C(=O)N[C@@H](C)C(=O)N[C@H](C(=O)N[C@H](C(=O)N[C@H](C(=O)N[C@@H](CCCCN)C(N)=O)C(C)C)C(C)C)[C@@H](C)O)C(C)C)C(C)C)C(C)C)[C@@H](C)CC — MIC (KCTC 1682, Mueller-Hinton broth; 16 h, 37 °C; growth inhibition over 99%): 16 µM
C[C@H]1COCCN1c1nc(NCc2cccnc2C(F)(F)F)c2cccnc2n1 — MIC (broth microdilution; EC1): 128 µg/mL
c1ccc(CCOC2CCCc3c2[nH]c2ccccc32)cc1 (stereo not drawn) — MIC (broth microdilution; O-19592): > 128 µg/mL
CCCCC(=O)N1C(=O)/C(=C(/C)O)C(=O)C1CC(C)C (stereo not drawn) — MIC (K12 ΔtolC): 6.25 µg/mL
CC[C@H](C)[C@H](NC(=O)CN)C(=O)NCC(=O)N[C@@H](CCCCN)C(=O)N[C@@H](Cc1ccccc1)C(=O)N[C@@H](CC(C)C)C(=O)N[C@@H](CCCCN)C(=O)N[C@@H](CCCCN)C(=O)N[C@@H](C)C(=O)N[C@@H](CCCCN)C(=O)N[C@@H](CCCCN)C(=O)N[C@@H](Cc1ccccc1)C(=O)NCC(=O)N[C@@H](CCCCN)C(=O)N[C@@H](C)C(=O)N[C@@H](Cc1ccccc1)C(=O)N[C@H](C(=O)N[C@@H](CCCCN)C(=O)N[C@H](C(=O)N[C@@H](CC(C)C)C(=O)N[C@@H](CCCCN)C(=O)N[C@@H](CCCCN)C(N)=O)[C@@H](C)CC)C(C)C — MIC (broth dilution; ATCC 25922, Mueller-Hinton broth; 24 h, 37 °C): 6.3 µM
CC1(C)CC[C@]2(C(=O)O)CC[C@]3(C)C(=CC[C@@H]4[C@@]5(C)CC[C@H](O)C(C)(C)[C@@H]5CC[C@]43C)[C@@H]2C1 — MIC (NDM-9): 512 µg/mL
CC(C)C[C@@H](NC(=O)CNC(=O)[C@@H](CCCCN)NC(=O)[C@@H](CC(C)C)NC(=O)[C@@H](CCCCN)NC(=O)[C@@H](CCCNC(=N)N)NC(=O)[C@@H](CC(C)C)NC(=O)[C@@H](CC(C)C)NC(=O)[C@@H](CCCNC(=N)N)NC(=O)[C@H](N)CCCNC(=N)N)C(=O)N[C@H](CCCCN)C(=O)N[C@H](CCCCN)C(=O)N[C@H](Cc1ccc(O)cc1)C(=O)N[C@H](CC(C)C)C(=O)N[C@H](Cc1ccc(O)cc1)C(=O)N[C@H](Cc1ccccc1)C(=O)N[C@H](CCCCN)C(=O)N[C@H](CC(C)C)C(=O)N[C@H](CCC(N)=O)C(=O)N[C@H](CC(C)C)C(=O)N[C@H](CC(C)C)C(=O)N[C@H](CCCCN)C(=O)N[C@H](CCCCN)C(N)=O — MIC (KCTC 1682, Mueller-Hinton broth; together with: 2.5 mM CaCl2): 8 µM
CC1(C)SC2C(NC(=O)C(NC(=O)C3=C(O)CN(c4ccccc4)C3=O)c3ccccc3)C(=O)N2C1C(=O)O (stereo not drawn) — MIC (broth microdilution; isolate IU, CTX-M-14, TEM-1; together with: clavulanic acid 6 µg/mL): > 200 µg/mL
CC[C@H](C)[C@H](NC(=O)CN)C(=O)N[C@@H](C)C(=O)N[C@@H](CC(=O)O)C(=O)N[C@@H](C)C(=O)N[C@H](C(=O)N[C@@H](CCCCN)C(=O)N[C@@H](C)C(=O)N[C@H](C(=O)N[C@@H](C)C(=O)N[C@@H](CCCCN)C(=O)N[C@@H](C)C(=O)N[C@@H](CC(C)C)C(=O)NCC(N)=O)[C@@H](C)CC)[C@@H](C)CC — MIC (ATCC 25922, Mueller-Hinton broth; 12 h, 37 °C): 128 µg/mL
CC[C@H](C)[C@H](NC(=O)[C@H](CCCNC(=N)N)NC(=O)[C@H](Cc1ccc(O)cc1)NC(=O)CNC(=O)[C@H](Cc1ccc(O)cc1)NC(=O)[C@H](CCCNC(=N)N)NC(=O)[C@H](CC(C)C)NC(=O)[C@H](C)NC(=O)[C@H](CCC(N)=O)NC(=O)[C@H](CCC(=O)O)NC(=O)[C@@H](NC(=O)[C@H](CCC(N)=O)NC(=O)[C@H](CCCNC(=N)N)NC(=O)[C@H](CCSC)NC(=O)[C@H](Cc1ccc(O)cc1)NC(=O)[C@H](CCC(N)=O)NC(=O)[C@@H](N)CCCNC(=N)N)[C@@H](C)CC)C(=O)N[C@@H](CO)C(=O)N[C@@H](CCCNC(=N)N)C(=O)N[C@@H](CCCNC(=N)N)C(N)=O — MIC (broth dilution; K12 BW25113; 18 h, 37 °C): 5.9 µM
CC[C@H](C)[C@H](NC(=O)CNC(=O)[C@H](CC(=O)O)NC(=O)[C@H](CCCNC(=N)N)NC(=O)[C@@H](NC(=O)[C@H](CC(N)=O)NC(=O)[C@H](CCCNC(=N)N)NC(=O)CNC(=O)[C@@H](NC(=O)[C@H](CCCCN)NC(=O)[C@H](CCC(=O)O)NC(=O)[C@@H](NC(=O)[C@H](CCCCN)NC(=O)[C@H](CCCCN)NC(=O)[C@H](Cc1ccccc1)NC(=O)[C@@H](NC(=O)[C@H](CCCCN)NC(=O)[C@H](Cc1c[nH]c2ccccc12)NC(=O)[C@@H](N)CCCNC(=N)N)[C@@H](C)CC)[C@@H](C)CC)C(C)C)C(C)C)C(=O)N[C@H](C(=O)N[C@@H](CCCCN)C(=O)N[C@@H](C)C(=O)NCC(=O)N1CCC[C@H]1C(=O)N[C@@H](C)C(=O)N[C@H](C(=O)N[C@@H](C)C(=O)N[C@@H](C)C(=O)N[C@@H](C)C(=O)NCC(=O)N[C@@H](CCC(N)=O)C(=O)N[C@@H](C)C(=O)N[C@@H](C)C(=O)N[C@H](C(=O)N[C@H](C(=O)N[C@H](C(=O)N[C@@H](CCCCN)C(N)=O)C(C)C)C(C)C)[C@@H](C)O)C(C)C)[C@@H](C)CC — MIC (K1 ATCC 700973, Mueller-Hinton broth; 16 h, 37 °C; growth inhibition over 99%): 2 µM
